# Assay results gathered from unrelated publications.
# Values joined by “and” are separate records of one study, mostly repeats; a detail may differ.
SMILES,tested on,assay,system,setting,scale,measurement,result
O=C(Cn1c(=O)n(Cc2ccc(F)cc2)c(=O)c2sc3ccccc3c21)Nc1ccc(F)cc1F,Mus musculus,"gene silencing, high-content imaging",LDR reporter GFP cells,retest run 1,,maximal activity,65%
Cn1cc(-c2ccc(-c3cncc(Cl)c3N3CCC4(CCNC4=O)CC3)cc2)cn1,COLO 205,"gene expression, microarray, measured: MIA mRNA",,"concentration not given, 2 h",relative to: untreated cells,log2 fold change,2.77
CS(=O)(=O)CCNCc1nc(-c2ccc3ncnc(Nc4ccc(OCc5cccc(C(F)(F)F)c5)cc4)c3c2)cs1,Trypanosoma brucei,,,unit not given,relative to: pEC50 T. brucei minus pTC50 HepG2,selectivity,> 1.5
Oc1ccccc1-c1n[nH]cc1-c1ccnc2ccccc12,PBS2 (Candida albicans),"kinase binding, MIB/MS competition",Candida albicans lysate,1 µM,relative to: DMSO,log2 fold change,0
CC(=O)N1CC(C(=O)Nc2ccc([C@H]3[C@@H](F)[C@@H](F)C[C@@H](F)[C@H]3F)cc2)C1,,liver microsome stability,rat liver microsomes,1 µM,,hepatic clearance,6.1 mL/min/kg
CCn1cc(-c2cc(Cn3ccnc3)cc3c2CCN([C@H](c2cc(OC)ccn2)C2CC2)C3=O)c(C(F)(F)F)n1,CAL-27,"cell growth, inhibitor",,120 h,,EC50,39.4 nM
O=C1CN(c2nc(-c3ccccc3)c3cc(Cl)ccc3n2)c2ccccc2N1,Mus musculus,"gene silencing, high-content imaging",LDR reporter GFP cells,retest run 2,,maximal activity,46%
Cl.ON=C1CCc2cc(-c3nc(C4CCNCC4)[nH]c3-c3ccncc3)ccc21,Trypanosoma brucei brucei,cell growth,,"concentration not given, PKIS HTS",,inhibition,7.9%
CCN(CC)C(=S)SSC(=S)N(CC)CC,Mus musculus,"gene silencing, high-content imaging",LDR reporter GFP cells,retest run 1,,maximal activity,130%
CN1CCN(C(=O)c2ccc(C3CCCCC3)cc2)CC1,,hepatocyte stability,cryopreserved mouse hepatocytes,1 µM,,hepatic clearance,76 mL/min/kg
COc1cc2c(cc1Nc1nc(N3CCc4ccccc43)c3cc[nH]c3n1)N(C(=O)CN(C)C)CC2,Trypanosoma brucei,,,unit not given,relative to: pEC50 T. brucei minus pTC50 HepG2,selectivity,1.4
O=c1c2ccccc2nc(COc2ccccc2)n1/N=C/c1c[nH]c2ccccc12,Mus musculus,"gene silencing, high-content imaging",LDR reporter GFP cells,retest run 1,,maximal activity,26%
CC(C)n1ncc2c(C(=O)NCC3(C)CNC3)cc(C3CC3)nc21,Enterovirus A71,viral replication,Tainan/4643/1998,900 nM,,plaque reduction,31.3% and 41.2%
C[C@@H](Oc1cc(-n2cnc3ccc(OCC4CCN(C)CC4)cc32)sc1C(N)=O)c1ccccc1C(F)(F)F,Trypanosoma brucei,,,unit not given,relative to: pEC50 T. brucei minus pTC50 HepG2,selectivity,2.8
c1coc(-c2n[nH]cc2-c2ccnc3ccccc23)c1,AKL1 (Candida albicans),"kinase binding, MIB/MS competition",Candida albicans lysate,10 µM,relative to: DMSO,log2 fold change,-0.07
COc1ccnc(CSC(N)=Nc2ccccc2OC)c1.Cl,Mus musculus,"gene silencing, high-content imaging",LDR reporter GFP cells,retest run 2,,maximal activity,161%
CC(C)NCC(O)c1ccc(O)c(O)c1 (centres unmarked),,,"ventricular cardiomyocytes, C57BL/6 mouse","dose not given, 0.78 s",,sarcomere length,1.71 µm
CN1CCC(C(=O)Nc2n[nH]c3nc(-c4ccc(O)cc4)c(Br)cc23)CC1.O=C(O)/C=C\C(=O)O,Trypanosoma brucei brucei,"parasite growth, inhibitor",,"concentration not given, PKIS high-throughput screen",,inhibition,100%
COc1ccc(OC)c(Nc2nc3nonc3nc2N2CCCC(C)C2)c1 (centres unmarked),Mus musculus,"gene silencing, high-content imaging",LDR reporter GFP cells,retest run 2,,maximal activity,49%
[O-][S+]1CCN(Cc2ccc(-c3ccc4ncnc(Nc5ccc(OCc6ccccc6)c(Cl)c5)c4c3)o2)CC1,Trypanosoma brucei,,,unit not given,relative to: pEC50 T. brucei minus pTC50 HepG2,selectivity,> 2.2
CCn1cc(-c2cc(Cn3ccoc3=N)cc3c2CCN([C@@H](C)c2cc(OC)ccn2)C3=O)c(C(F)(F)F)n1,CAL-27,"cell growth, inhibitor",,120 h,,EC50,37.2 nM
CC1=C(C(=O)Nc2ccc3[nH]ncc3c2)C(c2ccc(Cl)c(Cl)c2)CC(=O)N1 (centres unmarked),Trypanosoma brucei,,,unit not given,relative to: pEC50 T. brucei minus pTC50 HepG2,selectivity,> 0.6
CC(C)C[C@@H](C=O)NC(=O)[C@H](CC(C)C)NC(=O)[C@H](CC(C)C)NC(=O)OCc1ccccc1,Mus musculus,"gene silencing, high-content imaging",LDR reporter GFP cells,"30 h, retest run 1",,Emax,139%

# Repeated from above:
SMILES,tested on,assay,system,setting,scale,measurement,result
CC1=C(C(=O)Nc2ccc3[nH]ncc3c2)C(c2ccc(Cl)c(Cl)c2)CC(=O)N1 (centres unmarked),Trypanosoma brucei,,,unit not given,relative to: pEC50 T. brucei minus pTC50 HepG2,selectivity,> 0.6
CN1CCN(C(=O)c2ccc(C3CCCCC3)cc2)CC1,,hepatocyte stability,cryopreserved mouse hepatocytes,1 µM,,hepatic clearance,76 mL/min/kg
